Results collected from several papers.
Each numbered part is a random draw from the data of one study; scales do not carry over between parts. Values joined by “and” are separate records of one study, mostly repeats; a detail may differ.
Chain of UniProt Q9BRS2 (whole entry, looked up): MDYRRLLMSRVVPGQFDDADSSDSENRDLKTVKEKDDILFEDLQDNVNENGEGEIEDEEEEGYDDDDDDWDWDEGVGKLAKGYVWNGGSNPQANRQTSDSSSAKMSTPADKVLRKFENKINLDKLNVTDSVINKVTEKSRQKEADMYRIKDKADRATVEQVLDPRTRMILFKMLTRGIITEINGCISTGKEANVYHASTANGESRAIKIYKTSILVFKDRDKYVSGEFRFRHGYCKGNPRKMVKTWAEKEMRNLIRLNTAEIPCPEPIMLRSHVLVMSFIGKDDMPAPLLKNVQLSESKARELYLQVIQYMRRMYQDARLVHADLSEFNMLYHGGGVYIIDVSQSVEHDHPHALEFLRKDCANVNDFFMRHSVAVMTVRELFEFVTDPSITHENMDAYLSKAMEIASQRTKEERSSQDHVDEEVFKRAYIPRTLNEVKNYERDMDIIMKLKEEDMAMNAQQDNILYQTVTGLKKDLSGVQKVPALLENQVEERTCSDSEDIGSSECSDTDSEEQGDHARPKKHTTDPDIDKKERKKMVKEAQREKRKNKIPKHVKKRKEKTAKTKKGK
Chain of UniProt O60331 (whole entry, looked up): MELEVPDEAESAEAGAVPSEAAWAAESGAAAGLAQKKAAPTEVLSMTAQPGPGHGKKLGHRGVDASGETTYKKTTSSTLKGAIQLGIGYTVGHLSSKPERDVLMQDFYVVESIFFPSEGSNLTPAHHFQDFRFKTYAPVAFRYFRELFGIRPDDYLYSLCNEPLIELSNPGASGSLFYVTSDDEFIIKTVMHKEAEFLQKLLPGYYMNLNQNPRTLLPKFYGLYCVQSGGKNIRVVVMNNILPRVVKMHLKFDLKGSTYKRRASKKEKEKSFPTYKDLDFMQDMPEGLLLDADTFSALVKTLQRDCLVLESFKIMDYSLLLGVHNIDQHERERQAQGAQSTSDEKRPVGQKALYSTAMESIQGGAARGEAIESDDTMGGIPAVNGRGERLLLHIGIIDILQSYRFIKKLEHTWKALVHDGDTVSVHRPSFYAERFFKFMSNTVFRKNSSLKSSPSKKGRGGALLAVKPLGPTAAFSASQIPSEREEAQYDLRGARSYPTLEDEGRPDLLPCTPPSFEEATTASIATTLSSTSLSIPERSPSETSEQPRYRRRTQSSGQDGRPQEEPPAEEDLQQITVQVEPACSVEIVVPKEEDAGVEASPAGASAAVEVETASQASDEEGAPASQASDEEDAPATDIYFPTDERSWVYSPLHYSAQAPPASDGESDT
Chain of UniProt O00444 (whole entry, looked up): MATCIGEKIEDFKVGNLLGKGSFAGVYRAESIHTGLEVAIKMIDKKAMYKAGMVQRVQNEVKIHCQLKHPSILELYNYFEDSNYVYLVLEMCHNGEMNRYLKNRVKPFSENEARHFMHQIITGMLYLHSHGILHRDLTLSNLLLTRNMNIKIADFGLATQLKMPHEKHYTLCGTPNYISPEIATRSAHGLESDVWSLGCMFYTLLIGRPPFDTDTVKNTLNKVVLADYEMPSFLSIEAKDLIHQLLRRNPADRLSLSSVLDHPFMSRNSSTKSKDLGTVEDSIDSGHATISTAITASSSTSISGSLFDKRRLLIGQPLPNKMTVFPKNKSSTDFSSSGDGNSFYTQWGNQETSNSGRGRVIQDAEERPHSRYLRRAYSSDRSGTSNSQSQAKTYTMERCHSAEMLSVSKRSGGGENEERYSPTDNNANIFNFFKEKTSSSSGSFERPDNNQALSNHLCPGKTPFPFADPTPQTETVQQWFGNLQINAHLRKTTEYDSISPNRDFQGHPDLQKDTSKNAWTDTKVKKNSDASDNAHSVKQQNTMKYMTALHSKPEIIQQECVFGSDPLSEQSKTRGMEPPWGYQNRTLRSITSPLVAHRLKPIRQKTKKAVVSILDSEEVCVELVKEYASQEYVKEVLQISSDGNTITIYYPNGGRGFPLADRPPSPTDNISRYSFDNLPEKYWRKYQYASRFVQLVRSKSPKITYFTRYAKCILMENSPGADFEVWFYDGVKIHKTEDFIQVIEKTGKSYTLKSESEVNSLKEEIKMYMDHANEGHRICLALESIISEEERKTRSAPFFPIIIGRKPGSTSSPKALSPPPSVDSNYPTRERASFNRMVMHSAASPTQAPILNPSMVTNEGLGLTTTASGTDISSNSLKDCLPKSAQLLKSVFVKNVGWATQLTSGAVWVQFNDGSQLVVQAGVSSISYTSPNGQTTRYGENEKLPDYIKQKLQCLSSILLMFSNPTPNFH
Chain of UniProt P42336 (whole entry, unmodified, looked up): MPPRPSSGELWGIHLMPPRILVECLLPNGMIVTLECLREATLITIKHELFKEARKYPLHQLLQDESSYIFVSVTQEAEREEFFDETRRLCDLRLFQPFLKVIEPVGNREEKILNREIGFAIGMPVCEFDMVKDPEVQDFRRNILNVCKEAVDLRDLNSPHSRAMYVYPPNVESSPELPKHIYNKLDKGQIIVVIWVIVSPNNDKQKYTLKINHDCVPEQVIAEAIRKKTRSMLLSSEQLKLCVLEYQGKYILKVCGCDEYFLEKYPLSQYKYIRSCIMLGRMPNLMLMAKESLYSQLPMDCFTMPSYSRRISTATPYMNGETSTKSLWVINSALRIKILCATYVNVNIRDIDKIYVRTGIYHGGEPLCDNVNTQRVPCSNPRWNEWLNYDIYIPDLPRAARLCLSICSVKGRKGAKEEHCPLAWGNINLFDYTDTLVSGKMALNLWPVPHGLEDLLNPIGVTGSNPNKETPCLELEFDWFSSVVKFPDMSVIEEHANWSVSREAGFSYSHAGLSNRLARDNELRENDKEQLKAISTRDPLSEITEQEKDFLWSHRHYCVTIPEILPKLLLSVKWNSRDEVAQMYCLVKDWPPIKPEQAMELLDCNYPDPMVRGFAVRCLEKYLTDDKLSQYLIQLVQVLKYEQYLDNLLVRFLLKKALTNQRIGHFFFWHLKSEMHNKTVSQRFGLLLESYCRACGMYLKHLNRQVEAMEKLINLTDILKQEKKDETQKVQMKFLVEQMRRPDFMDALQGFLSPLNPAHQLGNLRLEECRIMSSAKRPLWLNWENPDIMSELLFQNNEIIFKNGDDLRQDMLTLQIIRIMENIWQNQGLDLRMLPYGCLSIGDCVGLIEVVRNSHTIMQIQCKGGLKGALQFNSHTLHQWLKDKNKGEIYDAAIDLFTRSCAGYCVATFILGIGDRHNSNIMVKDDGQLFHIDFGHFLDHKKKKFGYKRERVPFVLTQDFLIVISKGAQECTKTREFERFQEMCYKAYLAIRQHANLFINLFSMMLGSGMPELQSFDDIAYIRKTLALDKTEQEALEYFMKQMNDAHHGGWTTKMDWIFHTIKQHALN
Chain of UniProt Q9NY57 (whole entry, looked up): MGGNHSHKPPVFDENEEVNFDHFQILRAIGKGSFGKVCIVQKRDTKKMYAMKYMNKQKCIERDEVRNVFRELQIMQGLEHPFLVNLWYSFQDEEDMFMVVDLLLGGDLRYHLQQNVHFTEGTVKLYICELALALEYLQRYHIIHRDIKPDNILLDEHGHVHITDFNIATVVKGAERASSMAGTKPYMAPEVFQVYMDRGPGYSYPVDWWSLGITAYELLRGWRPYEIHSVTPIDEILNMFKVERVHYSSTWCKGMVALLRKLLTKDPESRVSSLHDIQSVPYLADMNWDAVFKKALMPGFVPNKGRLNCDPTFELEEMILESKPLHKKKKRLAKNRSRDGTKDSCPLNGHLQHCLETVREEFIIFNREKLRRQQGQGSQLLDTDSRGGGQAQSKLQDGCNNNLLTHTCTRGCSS
Chain of UniProt Q9UEE5 (whole entry, looked up): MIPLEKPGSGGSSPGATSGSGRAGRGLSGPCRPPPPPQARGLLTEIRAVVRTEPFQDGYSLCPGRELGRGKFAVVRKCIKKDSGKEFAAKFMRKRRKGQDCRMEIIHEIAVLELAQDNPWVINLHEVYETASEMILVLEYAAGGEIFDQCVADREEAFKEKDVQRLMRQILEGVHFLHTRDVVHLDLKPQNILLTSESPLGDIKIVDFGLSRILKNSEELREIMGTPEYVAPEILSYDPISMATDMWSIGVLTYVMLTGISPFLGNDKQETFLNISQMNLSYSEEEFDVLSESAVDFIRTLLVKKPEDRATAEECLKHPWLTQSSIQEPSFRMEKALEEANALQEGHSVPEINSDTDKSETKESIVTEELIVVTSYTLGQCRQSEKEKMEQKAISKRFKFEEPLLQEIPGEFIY

Sample 1 — effect on: cell-free assay; method: competition with immobilised ligand; concentration: 1 µM
SMILES: CO[C@H]1CC[C@H](CNc2ccc(S(=O)(=O)NC(=O)c3ccc(N4CCN(CC5=C(c6ccc(Cl)cc6)CC(C)(C)CC5)CC4)cc3Oc3cnc4[nH]ccc4c3)cc2[N+](=O)[O-])CC1
It gave 100% for remaining binding (CDK18 (Homo sapiens, UniProt Q07002)).
It gave 88% for remaining binding (STK17A (Homo sapiens, UniProt Q9UEE5)).
For PIK3CA (Homo sapiens, UniProt P42336, I800L): remaining binding read 98%.
PIP5K1C (Homo sapiens, UniProt O60331) — remaining binding: 100%.
The remaining binding was 100% (RIOK1 (Homo sapiens, UniProt Q9BRS2)).
For DCLK1 (Homo sapiens, UniProt O15075): remaining binding read 100%.
EIF2AK1 (Homo sapiens, UniProt Q9BQI3) — remaining binding: 100%.
It gave 100% for remaining binding (NEK2 (Homo sapiens, UniProt P51955)).
For STK32B (Homo sapiens, UniProt Q9NY57): remaining binding read 100%.
It gave 73% for remaining binding (PRKAA1 (Homo sapiens, UniProt Q13131)).
The remaining binding was 100% (ALK (Homo sapiens, UniProt Q9UM73, L1196M)).
It gave 94% for remaining binding (Tyrosine-protein kinase ABL1, phosphorylated (ABL1, Homo sapiens, UniProt P00519, H396P)).
CHEK2 (Homo sapiens, UniProt O96017) — remaining binding: 89%.
The remaining binding was 100% (FRK (Homo sapiens, UniProt P42685)).
It gave 100% for remaining binding (PLK4 (Homo sapiens, UniProt O00444)).

Sample 2 — method: RNA Bind-n-Seq; form: RNA; medium: in vitro; concentration: 200 nM; setting: whole 134-nt RNA, ends assumed; added: 150 mM LiCl; baseline: input library; direction: higher = stronger binding; library: 7-deaza-guanosine replaces G
Target: Ras GTPase-activating protein-binding protein 1, full length (G3BP1, Homo sapiens, UniProt Q13283)
Chain of UniProt Q13283 (whole entry, looked up): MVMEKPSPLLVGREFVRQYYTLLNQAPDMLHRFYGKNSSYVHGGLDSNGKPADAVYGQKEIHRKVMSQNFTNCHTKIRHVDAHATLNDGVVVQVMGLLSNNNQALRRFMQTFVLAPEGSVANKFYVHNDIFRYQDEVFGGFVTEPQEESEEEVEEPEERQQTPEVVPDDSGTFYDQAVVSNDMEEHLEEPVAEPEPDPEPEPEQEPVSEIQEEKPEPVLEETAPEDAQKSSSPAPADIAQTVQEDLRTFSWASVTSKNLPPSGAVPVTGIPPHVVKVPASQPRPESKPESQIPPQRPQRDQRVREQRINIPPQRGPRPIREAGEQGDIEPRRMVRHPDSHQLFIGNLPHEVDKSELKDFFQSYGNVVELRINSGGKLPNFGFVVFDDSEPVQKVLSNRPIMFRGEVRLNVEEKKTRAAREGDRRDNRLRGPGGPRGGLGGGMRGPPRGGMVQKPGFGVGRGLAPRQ
`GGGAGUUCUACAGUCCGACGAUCAGUCCUGUGCUACACAUCGUAUGUACCGAAUCAAACCCCCAAACCCCCAAAUUUAAAAAAGUAUUAUGUUACGCCGUUCGGAUCUGCACUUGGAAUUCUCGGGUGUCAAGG` has a log2 enrichment of 0.882.
`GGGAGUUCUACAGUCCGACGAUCUCAAGUCCUGUGCUACACAUCGUAUGUACCGAAUCGGGUUUGGGUUUGGGUUUGGAAAGUAUUAUGUUACGCCGUUCGGAUCUGCACUUCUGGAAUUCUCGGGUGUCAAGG` gave a log2 enrichment of -0.201.
With `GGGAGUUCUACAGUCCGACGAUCCUGUGCUACACAUCGUAUGUACCGAAUCGGGGCCCCCCCGGCCCCCCCGGGCCCCCCCGGGAAAGUAUUAUGUUACGCCGUUCGGAUCUGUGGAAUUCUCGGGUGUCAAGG` the log2 enrichment was 1.15.
The log2 enrichment of `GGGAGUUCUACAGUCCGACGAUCUCCUGUGCUACACAUCGUAUGUACCGAAUCGGGGAAAAAAAGGGGUGGGGAAAAAGGGGAAAGUAUUAUGUUACGCCGUUCGGAUCUGCAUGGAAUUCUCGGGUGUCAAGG` is reported as -1.6.
`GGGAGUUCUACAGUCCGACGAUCUCCUCAAGUCCUGUGCUACACAUCGUAUGUACCGAAUCGGUGGGGUGGUGGGAAAGUAUUAUGUUACGCCGUUCGGAUCUGCACUUCCAGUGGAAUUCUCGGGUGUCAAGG` has a log2 enrichment of 0.663.
`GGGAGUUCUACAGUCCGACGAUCCACAGACAACACGCACCCACACAGAAAAAGAGGGAAGGGGUUGGGAUGGGGACAGGGUGCACAGCAGGGCGGGGUAGGACCCCAGCCCCUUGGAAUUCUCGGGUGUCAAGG` gave a log2 enrichment of 0.272.
`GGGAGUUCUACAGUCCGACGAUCCACAGACAACACGCACCCACACAGACACAGAGGGAAGGGGUUGGGAUGGGGACAGGGGGCACAGCAGGGCGGGGUAGGACCCCAGCCCCUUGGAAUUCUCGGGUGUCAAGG` has a log2 enrichment of 0.0344.
For `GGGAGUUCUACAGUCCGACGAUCAGUCCUGUGCUACACAUCGUAUGUACCGAAUCGGGGCCCCGGGGCCCCGGCCCCGGGAAAGUAUUAUGUUACGCCGUUCGGAUCUGCACUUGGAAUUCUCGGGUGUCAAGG`, the log2 enrichment was -0.358.

Other studies, line by line
ADRB1: Beta-1 adrenergic receptor (ADRB1, Homo sapiens, UniProt P08588)
Chain of UniProt P08588 (whole entry, looked up): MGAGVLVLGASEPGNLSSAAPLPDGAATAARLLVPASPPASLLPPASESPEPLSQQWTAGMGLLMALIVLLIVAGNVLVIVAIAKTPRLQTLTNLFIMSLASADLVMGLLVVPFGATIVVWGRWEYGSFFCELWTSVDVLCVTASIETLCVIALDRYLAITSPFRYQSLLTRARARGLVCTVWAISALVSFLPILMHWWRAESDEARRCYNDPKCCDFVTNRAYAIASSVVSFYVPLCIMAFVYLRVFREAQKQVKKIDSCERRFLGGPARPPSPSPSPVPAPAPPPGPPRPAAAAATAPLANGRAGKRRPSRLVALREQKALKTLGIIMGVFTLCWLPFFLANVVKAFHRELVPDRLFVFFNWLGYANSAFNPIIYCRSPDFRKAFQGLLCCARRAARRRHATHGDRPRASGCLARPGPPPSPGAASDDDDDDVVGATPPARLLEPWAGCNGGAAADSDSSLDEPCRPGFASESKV
For `CC(C)n1cnc(-c2ccc(F)cc2)c1-c1ncc(C(=O)Nc2ccc(N3CCN(C)CC3)cc2)[nH]1`, “patients with Arthritis TEAE” read 0% (phase 2a clinical trial; patients with idiopathic pulmonary fibrosis; 60 mg once daily).
`Nc1nc2ccc(OC(F)(F)F)cc2s1` gave a nuclei count of -0.0245 z-score and -2.55 z-score (mouse MPNST tumor cells; high-content nuclear imaging, measured: cell number; 10 µM, 12 h, mean of 2 replicates; baseline: plate mean, higher = more cells).
The infection rate of `CC(=O)NCCCS(=O)(=O)O` is reported as 109% (Plasmodium berghei; inhibitor; Huh-7, GFP-expressing sporozoites, liver stage; 10 µM, 24 h; baseline: untreated control).
The EC50 of `CCn1ncc(NC(=O)Cn2ncc3cc(-c4ccc(N(C)C)cc4)ccc32)n1` is reported as no less than 100 µM (ADRB1; agonist).
`CC(=O)N1N=C(c2c(-c3ccccc3)c3cc(Br)ccc3[nH]c2=O)CC1c1ccco1` (stereo not drawn) has a remaining compound of 5.9% (mouse, microsomes or S9; 2 µM, 0.5 h).
The EC50 of `COc1ccc2[nH]cc(C3=CCN(c4ccc(C#N)cc4F)CC3)c2c1` is reported as no less than 100 µM (ADRB1; agonist).
`CCOC(=O)OC(C)OC1=C(C(=O)Nc2ccccn2)N(C)S(=O)(=O)c2ccccc21` (stereo not drawn) gave a nuclei count of 0.362 z-score (mouse MPNST tumor cells; high-content nuclear imaging, measured: cell number; 10 µM, 12 h, mean of 2 replicates; baseline: plate mean, higher = more cells).

A few entries again (sample 1):
It gave 88% for remaining binding (STK17A (Homo sapiens, UniProt Q9UEE5)).
For PIK3CA (Homo sapiens, UniProt P42336, I800L): remaining binding read 98%.
